Assay results pooled from the literature.
Each numbered part is a random draw from the data of one study; scales do not carry over between parts.
Chain of UniProt P61077 (whole entry, looked up): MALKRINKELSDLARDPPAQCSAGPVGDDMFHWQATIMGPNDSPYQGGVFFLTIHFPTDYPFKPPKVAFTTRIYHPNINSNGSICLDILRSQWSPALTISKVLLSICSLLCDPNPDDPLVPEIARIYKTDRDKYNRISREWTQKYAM
Chain of UniProt Q96B02 (whole entry, looked up): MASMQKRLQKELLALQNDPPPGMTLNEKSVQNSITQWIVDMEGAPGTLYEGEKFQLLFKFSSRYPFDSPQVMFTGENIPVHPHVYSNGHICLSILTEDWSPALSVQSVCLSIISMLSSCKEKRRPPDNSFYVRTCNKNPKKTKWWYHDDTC
Chain of UniProt P49459 (whole entry, looked up): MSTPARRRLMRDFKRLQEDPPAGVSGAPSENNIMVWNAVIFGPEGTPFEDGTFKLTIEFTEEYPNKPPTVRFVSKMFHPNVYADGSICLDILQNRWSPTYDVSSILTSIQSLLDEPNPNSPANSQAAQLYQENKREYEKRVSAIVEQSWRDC

Study 1
Molecule: BRCA1 RING domain (UniProt P38398)
Method: yeast two-hybrid
Matrix: yeast
Setting: mostly zero background
Baseline: not given
Direction: higher = stronger interaction
target | lacZ reporter activity
UBE2A UBC core domain (UniProt P49459) | 0
UBE2W UBC core domain (UniProt Q96B02) | 3800
UBE2D3 UBC core domain (UniProt P61077) | 0

Study 2
Target: HLA class I histocompatibility antigen, A alpha chain, allele A*80:01 (Homo sapiens, UniProt P04439)
Read-out: peptide-MHC binding
Molecule type: peptide
Concentration: concentration not given
Sequence | binding
RFLTHYFTK | inactive
ITDFNIDTY | inactive
RLAPEPVYT | inactive
DHIPIINTL | inactive

Study 3
Target: Sal-like protein 4, full length isoform A (SALL4, Homo sapiens, UniProt Q9UJQ4, residues 1-1053)
Chain of UniProt Q9UJQ4 (whole entry, looked up): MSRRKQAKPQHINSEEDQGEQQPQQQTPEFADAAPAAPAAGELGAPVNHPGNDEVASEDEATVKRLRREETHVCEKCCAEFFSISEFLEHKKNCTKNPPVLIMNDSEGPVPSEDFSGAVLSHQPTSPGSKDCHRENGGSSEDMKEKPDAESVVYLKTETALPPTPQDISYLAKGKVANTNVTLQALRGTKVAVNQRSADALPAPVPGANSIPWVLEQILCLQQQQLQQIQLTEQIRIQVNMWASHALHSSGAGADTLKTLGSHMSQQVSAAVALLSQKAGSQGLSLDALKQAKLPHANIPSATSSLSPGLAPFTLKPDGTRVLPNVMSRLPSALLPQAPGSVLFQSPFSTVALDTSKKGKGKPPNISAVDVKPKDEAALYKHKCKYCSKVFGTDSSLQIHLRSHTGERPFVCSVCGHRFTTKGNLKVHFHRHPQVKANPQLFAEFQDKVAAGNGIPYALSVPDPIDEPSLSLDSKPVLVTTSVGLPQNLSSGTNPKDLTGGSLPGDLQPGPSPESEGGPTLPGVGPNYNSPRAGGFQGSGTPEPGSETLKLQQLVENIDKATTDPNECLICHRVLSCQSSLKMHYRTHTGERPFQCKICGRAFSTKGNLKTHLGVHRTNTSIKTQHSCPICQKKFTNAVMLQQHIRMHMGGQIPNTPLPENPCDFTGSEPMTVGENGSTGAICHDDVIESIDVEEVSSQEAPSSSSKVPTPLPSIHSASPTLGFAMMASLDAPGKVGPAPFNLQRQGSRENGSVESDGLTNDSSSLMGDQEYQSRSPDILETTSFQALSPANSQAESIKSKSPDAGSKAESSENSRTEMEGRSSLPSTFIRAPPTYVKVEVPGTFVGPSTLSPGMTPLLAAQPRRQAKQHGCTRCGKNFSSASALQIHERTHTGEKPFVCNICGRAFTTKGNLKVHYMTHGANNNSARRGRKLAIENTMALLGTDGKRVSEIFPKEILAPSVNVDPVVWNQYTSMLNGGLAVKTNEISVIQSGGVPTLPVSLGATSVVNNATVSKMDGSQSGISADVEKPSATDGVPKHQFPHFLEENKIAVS
Method: universal PBM
Molecule type: double-stranded DNA, one strand shown
Matrix: in vitro
Concentration: 600 nM
Setting: 8-mer, flanks averaged, mean of replicates
Direction: higher = stronger binding
Oligonucleotide | E-score
CATGTTCG | 0.0115
ACGGTAAT | 0.143
GACACACC | -0.155
CAGAATCG | -0.0484
AGTTTGAT | 0.103
GGTTGATA | 0.0722
ACATGGAA | 0.176
ACAAAATA | 0.259

Study 4
Target: RING finger protein unkempt homolog, zinc fingers 1-6, GST-SBP tag (UNK, Homo sapiens, UniProt Q9C0B0, residues 30-357)
Chain of UniProt Q9C0B0 (30-357, looked up): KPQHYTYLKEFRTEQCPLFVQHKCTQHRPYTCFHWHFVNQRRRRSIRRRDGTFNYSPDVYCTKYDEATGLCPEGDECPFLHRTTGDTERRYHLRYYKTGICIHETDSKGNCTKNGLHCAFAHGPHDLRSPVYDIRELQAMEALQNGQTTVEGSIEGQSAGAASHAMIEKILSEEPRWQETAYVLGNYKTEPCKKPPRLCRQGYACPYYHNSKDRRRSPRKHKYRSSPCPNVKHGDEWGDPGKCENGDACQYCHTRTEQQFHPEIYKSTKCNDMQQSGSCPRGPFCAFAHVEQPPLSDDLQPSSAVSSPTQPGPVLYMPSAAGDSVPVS
Method: RNA Bind-n-Seq
Molecule type: RNA
Matrix: in vitro
Concentration: not given
Setting: RNA with constant flanks, human and mouse sites, ends assumed
Baseline: input RNA pool
Direction: higher = stronger binding
All sequences stand within: GGGAGUUCUACAGUCCGACGAUC … CAACAGAGGAUUGAGCAUCA
Oligonucleotide | bound/input enrichment [ratio]
AUGAAGAACAUUGUUGCUAAAAAUGGAUUUUCCGGAUUAUUUUCAGGCCUAAUUCCUCGCUUAAUUAAAAUUGCUCCUGCUUGUGCCAUUAUGAUCAGUACAUAUGAAUUUGGAAAGGCU | 0.273
UUCCAGUGUCCAAUAUGUGGUUUGGUUAUUAAAAGGAAGAGUUACUGGAAGCGGCACAUGGUGAUUCACACAGGUUUAAAAAGUCAUCAGUGUCCGCUCUGUCCAUUCCGGUGUGCUCGC | 0.182
UAAGUUAUUUUGUACAGCUUUGUAAAUUCUUAACAUUUUUAUAUUGCCAUGUUUAUUUUGUUUGGGUAAUUUGGUUCAUUAAGUACAUAGCUAAGGUAAUGAACAUCUUUUUCAGUAAUU | 0.822
UUAUGUGAUAUGAGAAGUUAUUUUUCUUUCUUUGAAGUAACAUGGAUUUUAUACUACAGAAUCAAGAGAAUUGGCUUUAUAGCAAAUUUUGAUAUAUAAAAAGUGGUACAGGUUUUUAUA | 0.491
GUGCCGCUGAAGGAGAAGAAGCUCAUGGAAGUCAAACUUGGAGAGCUGCCGAGCUGGAUAAUGAUGCGGGAUUUCACCCCCAGUGGCAUUGCCGGAGCCUUUCGGAGAGGGUAUGACCGG | 0.111
GGCAGUGGCUGGGGAGGUGAGGGAGGGGGGGCAUUCGCUUUUGGGGGCACCUCAGGUGCCUAGGUUUUCCUUUAGGUUUGUUCUAUCCGAGACGCGGGACUCCCGGGGCCCGGCUCAAGU | 5.19
ACUCCUGUUACCUUGAAAAAUAAAAAUGUUAACAGGAAUGCAGUGUGCUCAUUAUCCCUAACUAGCAAAUCCUACUUUAUGCAAAGCUGUUCUCUUGUUCUGCUGUUUUAAAUGUCCAUG | 1.27
AUGAGGCUAUCCUAGCUGCCCUCGAGCCUCCGGAAACUCAACCCAAAAGGAAGUGCUGUAUAUUCUAAACCGUUUUCUCCUUCCCCUCUUUGCUGCUGCUUCCUGUCCCACUACUGUAGA | 1.01

Excerpt of the above (study 3):
Oligonucleotide | E-score
ACGGTAAT | 0.143
GACACACC | -0.155
